Published values pooled from the literature.
Numbered parts are unrelated; each lists some results of a single study.
UniProt P80192, sequence (whole entry, looked up): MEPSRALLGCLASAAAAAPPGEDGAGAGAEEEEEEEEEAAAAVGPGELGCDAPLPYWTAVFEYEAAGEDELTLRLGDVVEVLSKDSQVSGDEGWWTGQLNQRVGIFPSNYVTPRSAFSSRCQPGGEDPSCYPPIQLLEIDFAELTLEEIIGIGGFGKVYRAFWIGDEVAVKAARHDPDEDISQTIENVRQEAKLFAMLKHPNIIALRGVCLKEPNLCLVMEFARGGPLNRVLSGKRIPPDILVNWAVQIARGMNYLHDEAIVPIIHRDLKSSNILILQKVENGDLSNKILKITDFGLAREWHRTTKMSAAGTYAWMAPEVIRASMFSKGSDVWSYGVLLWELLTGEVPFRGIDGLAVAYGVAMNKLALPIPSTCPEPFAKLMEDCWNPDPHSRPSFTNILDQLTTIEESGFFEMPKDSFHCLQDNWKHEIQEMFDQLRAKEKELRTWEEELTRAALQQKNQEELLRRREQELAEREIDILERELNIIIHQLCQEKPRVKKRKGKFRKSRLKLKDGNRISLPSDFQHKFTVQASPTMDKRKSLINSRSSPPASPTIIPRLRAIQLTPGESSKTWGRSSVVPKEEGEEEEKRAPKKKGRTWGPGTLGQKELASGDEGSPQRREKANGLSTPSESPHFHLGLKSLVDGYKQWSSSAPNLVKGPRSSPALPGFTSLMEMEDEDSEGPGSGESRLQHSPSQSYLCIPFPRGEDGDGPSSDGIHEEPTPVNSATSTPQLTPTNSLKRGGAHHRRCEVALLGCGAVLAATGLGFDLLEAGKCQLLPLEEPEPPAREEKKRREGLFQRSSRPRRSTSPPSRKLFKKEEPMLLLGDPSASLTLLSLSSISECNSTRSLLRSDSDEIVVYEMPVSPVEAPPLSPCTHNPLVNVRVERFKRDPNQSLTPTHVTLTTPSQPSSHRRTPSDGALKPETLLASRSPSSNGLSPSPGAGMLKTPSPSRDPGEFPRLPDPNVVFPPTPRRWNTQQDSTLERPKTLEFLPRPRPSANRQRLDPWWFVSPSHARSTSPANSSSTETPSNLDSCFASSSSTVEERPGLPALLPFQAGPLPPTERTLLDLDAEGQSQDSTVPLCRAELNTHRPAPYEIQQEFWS
UniProt O95819, sequence (whole entry, looked up): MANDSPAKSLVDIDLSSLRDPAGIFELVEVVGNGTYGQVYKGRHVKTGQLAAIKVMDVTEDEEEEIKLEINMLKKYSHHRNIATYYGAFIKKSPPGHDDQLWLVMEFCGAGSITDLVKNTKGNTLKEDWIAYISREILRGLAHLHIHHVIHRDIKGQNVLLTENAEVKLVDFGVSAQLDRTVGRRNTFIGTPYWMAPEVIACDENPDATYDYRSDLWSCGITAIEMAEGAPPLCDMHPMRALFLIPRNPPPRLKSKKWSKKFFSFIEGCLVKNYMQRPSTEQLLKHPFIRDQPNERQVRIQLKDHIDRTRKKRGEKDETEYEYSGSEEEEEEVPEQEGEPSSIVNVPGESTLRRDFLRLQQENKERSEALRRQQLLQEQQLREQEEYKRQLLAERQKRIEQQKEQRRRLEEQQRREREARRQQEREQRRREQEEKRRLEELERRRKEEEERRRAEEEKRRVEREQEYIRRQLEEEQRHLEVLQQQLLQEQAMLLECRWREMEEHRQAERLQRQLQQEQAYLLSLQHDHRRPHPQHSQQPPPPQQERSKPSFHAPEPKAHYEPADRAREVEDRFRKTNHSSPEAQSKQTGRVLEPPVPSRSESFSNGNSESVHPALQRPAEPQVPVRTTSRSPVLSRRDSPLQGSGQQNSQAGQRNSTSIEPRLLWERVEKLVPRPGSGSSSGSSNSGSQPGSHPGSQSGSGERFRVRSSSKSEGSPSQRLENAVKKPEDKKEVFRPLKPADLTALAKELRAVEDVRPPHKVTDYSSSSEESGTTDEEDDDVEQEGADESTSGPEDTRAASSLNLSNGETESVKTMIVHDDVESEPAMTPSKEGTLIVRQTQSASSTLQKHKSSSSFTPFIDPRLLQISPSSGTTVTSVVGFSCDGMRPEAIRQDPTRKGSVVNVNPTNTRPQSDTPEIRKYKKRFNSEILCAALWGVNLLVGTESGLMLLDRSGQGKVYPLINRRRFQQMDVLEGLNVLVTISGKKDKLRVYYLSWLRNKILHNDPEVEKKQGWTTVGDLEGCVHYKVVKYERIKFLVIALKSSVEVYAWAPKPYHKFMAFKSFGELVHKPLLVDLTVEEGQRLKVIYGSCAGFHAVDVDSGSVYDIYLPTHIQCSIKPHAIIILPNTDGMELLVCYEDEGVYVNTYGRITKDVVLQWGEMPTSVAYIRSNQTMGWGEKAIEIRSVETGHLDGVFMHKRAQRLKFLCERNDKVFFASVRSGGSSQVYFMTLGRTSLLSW
UniProt Q9NWZ3, sequence (whole entry, looked up): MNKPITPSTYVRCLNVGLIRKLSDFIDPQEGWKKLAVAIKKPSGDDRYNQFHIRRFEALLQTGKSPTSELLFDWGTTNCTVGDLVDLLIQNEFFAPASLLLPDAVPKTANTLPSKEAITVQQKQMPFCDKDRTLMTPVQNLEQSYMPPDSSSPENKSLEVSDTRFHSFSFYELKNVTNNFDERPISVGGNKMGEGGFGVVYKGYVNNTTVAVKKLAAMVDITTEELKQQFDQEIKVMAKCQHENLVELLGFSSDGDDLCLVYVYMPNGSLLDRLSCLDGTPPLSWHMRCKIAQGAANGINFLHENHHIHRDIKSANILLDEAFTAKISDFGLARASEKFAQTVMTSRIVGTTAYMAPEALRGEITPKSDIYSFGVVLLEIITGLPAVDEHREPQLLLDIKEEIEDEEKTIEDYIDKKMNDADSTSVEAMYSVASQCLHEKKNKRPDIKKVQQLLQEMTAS
UniProt O14936, sequence (whole entry, looked up): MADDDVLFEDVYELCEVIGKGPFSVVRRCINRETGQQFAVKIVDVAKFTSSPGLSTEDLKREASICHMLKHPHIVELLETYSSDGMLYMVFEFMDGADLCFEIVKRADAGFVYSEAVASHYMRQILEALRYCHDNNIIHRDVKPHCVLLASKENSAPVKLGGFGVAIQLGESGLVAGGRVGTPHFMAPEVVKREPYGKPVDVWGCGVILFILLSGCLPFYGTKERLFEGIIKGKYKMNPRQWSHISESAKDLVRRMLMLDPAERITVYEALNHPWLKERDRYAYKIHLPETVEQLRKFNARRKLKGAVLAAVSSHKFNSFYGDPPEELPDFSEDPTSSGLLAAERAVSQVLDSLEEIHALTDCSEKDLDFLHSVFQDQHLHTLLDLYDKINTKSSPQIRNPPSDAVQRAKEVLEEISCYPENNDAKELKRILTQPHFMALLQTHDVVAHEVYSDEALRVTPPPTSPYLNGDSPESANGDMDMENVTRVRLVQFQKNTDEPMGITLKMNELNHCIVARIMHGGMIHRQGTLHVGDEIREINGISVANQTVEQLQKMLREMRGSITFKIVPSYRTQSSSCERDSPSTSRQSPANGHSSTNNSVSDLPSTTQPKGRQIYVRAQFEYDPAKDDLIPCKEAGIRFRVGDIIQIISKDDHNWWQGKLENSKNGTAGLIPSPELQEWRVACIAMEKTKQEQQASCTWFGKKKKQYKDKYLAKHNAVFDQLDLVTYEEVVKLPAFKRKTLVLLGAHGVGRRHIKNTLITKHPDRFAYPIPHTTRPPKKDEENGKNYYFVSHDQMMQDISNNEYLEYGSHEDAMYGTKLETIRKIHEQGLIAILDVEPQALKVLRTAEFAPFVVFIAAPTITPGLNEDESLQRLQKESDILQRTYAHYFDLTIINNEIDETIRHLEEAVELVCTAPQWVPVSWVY
UniProt Q04771, sequence (whole entry, looked up): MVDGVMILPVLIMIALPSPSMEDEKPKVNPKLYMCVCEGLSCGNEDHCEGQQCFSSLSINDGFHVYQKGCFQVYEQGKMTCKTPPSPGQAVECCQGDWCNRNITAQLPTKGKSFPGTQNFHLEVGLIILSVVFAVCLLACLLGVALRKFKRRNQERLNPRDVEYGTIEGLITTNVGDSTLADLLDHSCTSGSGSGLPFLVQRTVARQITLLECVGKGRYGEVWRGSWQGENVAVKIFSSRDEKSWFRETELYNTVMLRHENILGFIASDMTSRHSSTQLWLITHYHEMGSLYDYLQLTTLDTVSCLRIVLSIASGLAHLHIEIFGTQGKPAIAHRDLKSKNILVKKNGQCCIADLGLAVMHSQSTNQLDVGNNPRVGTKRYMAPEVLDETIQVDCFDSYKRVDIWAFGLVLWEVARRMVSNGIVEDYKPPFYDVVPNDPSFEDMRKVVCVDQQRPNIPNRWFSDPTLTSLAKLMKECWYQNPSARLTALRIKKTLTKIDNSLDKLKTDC
UniProt Q9UHD2, sequence (whole entry, looked up): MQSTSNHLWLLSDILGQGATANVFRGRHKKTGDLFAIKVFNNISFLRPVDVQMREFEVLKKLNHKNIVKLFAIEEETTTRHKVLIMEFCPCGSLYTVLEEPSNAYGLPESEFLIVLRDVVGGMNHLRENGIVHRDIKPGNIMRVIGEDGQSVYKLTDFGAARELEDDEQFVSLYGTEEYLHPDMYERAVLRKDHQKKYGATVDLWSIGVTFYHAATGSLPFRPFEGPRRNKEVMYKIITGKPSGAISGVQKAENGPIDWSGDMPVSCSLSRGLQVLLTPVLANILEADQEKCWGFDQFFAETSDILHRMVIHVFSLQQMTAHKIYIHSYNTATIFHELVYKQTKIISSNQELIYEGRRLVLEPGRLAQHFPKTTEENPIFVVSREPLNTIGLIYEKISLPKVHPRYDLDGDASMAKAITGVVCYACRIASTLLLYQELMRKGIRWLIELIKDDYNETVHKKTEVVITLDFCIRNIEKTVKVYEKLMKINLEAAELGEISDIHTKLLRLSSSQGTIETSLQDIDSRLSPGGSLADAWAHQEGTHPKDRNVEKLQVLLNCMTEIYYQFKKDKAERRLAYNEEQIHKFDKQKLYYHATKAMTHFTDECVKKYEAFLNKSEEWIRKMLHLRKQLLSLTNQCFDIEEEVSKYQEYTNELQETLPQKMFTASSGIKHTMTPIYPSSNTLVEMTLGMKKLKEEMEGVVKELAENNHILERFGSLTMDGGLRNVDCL

Set 1
Cell line: mouse MPNST tumor cells
Method: high-content nuclear imaging
Item: cell number
Concentration: 10 µM
Time: 12 h
Notes: mean of 2 replicates
Reference: plate mean
Reading: higher = more cells
`NC(C(=O)O)c1cc(O)ccc1Cl` (stereo not shown) has a nuclei count of -0.715 z-score.
`COc1ccc(S(=O)(=O)Nc2c(C)cc(C)cc2C)cc1` has a nuclei count of 1.45 z-score.
`CN(C)CCCOc1nn(Cc2ccccc2)c2ccccc12` gave a nuclei count of 1.96 z-score.
With `CC[N+](CC)(CC)CCC(O)(c1ccccc1)C1CCCCC1` (stereo not shown) the nuclei count was 0.74 z-score.
For `Clc1cccc(COc2cncc(N3CCNCC3)n2)c1`, the nuclei count was 0.668 z-score.

Set 2
Target: panel of 300 human kinases
Concentration: 0.5 µM
Reading: higher = more selective
The Gini score of `COc1cc(Nc2c(C#N)cnc3cc(OCCCN4CCN(C)CC4)c(OC)cc23)c(Cl)cc1Cl` is reported as 0.61.
`O=C(Nc1nc2ccccc2n1CCN1CCOCC1)c1cccc([N+](=O)[O-])c1` has a Gini score of 0.7.
With `c1ccc(-c2cnc(Nc3ccc(OCCN4CCCC4)cc3)s2)cc1` the Gini score was 0.65.
`Nc1cccc(-c2cc3c(Oc4cccc(O)c4)ncnc3[nH]2)c1` gave a Gini score of 0.62.
For `CC#CC(=O)Nc1cc2c(Nc3ccc(F)c(Cl)c3)ncnc2cn1`, the Gini score was 0.79.
The Gini score of `CN([C@@H](Cc1ccc(OS(=O)(=O)c2cccc3cnccc23)cc1)C(=O)N1CCN(c2ccccc2)CC1)S(=O)(=O)c1cccc2cnccc12` is reported as 0.7.

Set 3
Species: mouse
Matrix: microsomes or S9
Concentration: 2 µM
Time: 0.5 h
`CC(C)=CCc1c2c(c3occ(-c4ccc(O)c(O)c4)c(=O)c3c1O)C=CC(C)(C)O2` has a remaining compound of 34.2%.
`Cc1nnc(C)n1/N=C/c1ccc(OCC(N)=O)cc1` has a remaining compound of 49.5%.
The remaining compound of `CC(NC(C)c1nc(N)nc(N(C)C)n1)c1ccccc1` (stereo not shown) is reported as 23.5%.
`CN1CCN(C(=O)c2ccc(-c3ccc4nnc(Cc5cccc6c(=O)[nH]ccc56)n4n3)cc2)CC1` has a remaining compound of 0%.
With `Cc1cc(NNS(=O)(=O)c2cccs2)n2ncnc2n1` the remaining compound was over 100%.

Set 4
Compound: O=C(Nc1cnn(-c2csc(C(=O)NC3COC3)c2)c1)Nc1ccccc1Cl
Read-out: enzyme activity
Concentration: 5 µM
Reference: untreated control
It gave 93.9% for remaining activity (EPHA5 (Homo sapiens, UniProt P54756)).
MAP3K6 (Homo sapiens, UniProt O95382) — remaining activity: 94.3%.
It gave 96.1% for remaining activity (FES (Homo sapiens, UniProt P07332)).

Set 5
SMILES: COc1ccc2cc(OCC3(C(=O)O)CN(C(=O)c4ccc(F)cc4)C3)ccc2c1
Read-out: cell-free assay
Method: competition with immobilised ligand
Concentration: 1 µM
It gave 100% for remaining binding (PIK3CA (Homo sapiens, UniProt P42336)).
MAP2K3 (Homo sapiens, UniProt P46734) — remaining binding: 95%.
It gave 98% for remaining binding (STK33 (Homo sapiens, UniProt Q9BYT3)).
For NUAK2 (Homo sapiens, UniProt Q9H093): remaining binding read 92%.
The remaining binding was 100% (HUNK (Homo sapiens, UniProt P57058)).
For PIM2 (Homo sapiens, UniProt Q9P1W9): remaining binding read 100%.
The remaining binding was 98% (PIM3 (Homo sapiens, UniProt Q86V86)).
Cyclin-dependent kinase 4, with cyclin D1 (CDK4, Homo sapiens, UniProt P11802) — remaining binding: 100%.
For NEK1 (Homo sapiens, UniProt Q96PY6): remaining binding read 100%.
For MAP3K10 (Homo sapiens, UniProt Q02779): remaining binding read 100%.
It gave 100% for remaining binding (MAP3K9 (Homo sapiens, UniProt P80192)).
The remaining binding was 91% (CASK (Homo sapiens, UniProt O14936)).
ACVR1 (Homo sapiens, UniProt Q04771) — remaining binding: 100%.
For MAPK13 (Homo sapiens, UniProt O15264): remaining binding read 100%.
The remaining binding was 87% (IRAK4 (Homo sapiens, UniProt Q9NWZ3)).
It gave 100% for remaining binding (CDK16 (Homo sapiens, UniProt Q00536)).
It gave 100% for remaining binding (PIK3CG (Homo sapiens, UniProt P48736)).
The remaining binding was 72% (SIK3 (Homo sapiens, UniProt Q9Y2K2)).
The remaining binding was 100% (TBK1 (Homo sapiens, UniProt Q9UHD2)).
MAP4K4 (Homo sapiens, UniProt O95819) — remaining binding: 100%.
It gave 90% for remaining binding (Tyrosine-protein kinase ABL1, non-phosphorylated (ABL1, Homo sapiens, UniProt P00519, Q252H)).
The remaining binding was 96% (MAP3K2 (Homo sapiens, UniProt Q9Y2U5)).

Set 6
Method: PRP chromatography estimate
Matrix: 1,9-decadiene/PBS
pH: 7.4
`CC(C)C[C@@H]1NC(=O)[C@H](CC(C)C)NC(=O)[C@@H](CC(C)C)NC(=O)[C@@H](C)NC(=O)[C@H](C(C)C)NC(=O)[C@H](Cc2cscn2)NC(=O)[C@H](C)NC1=O` has a logD of -2.04.
The logD of `CC(C)C[C@@H]1NC(=O)[C@H](CC(C)C)NC(=O)[C@@H](CC(C)C)NC(=O)[C@H](CC(C)C)NC(=O)[C@@H](Cc2cscn2)NC(=O)[C@H](Cc2cscn2)NC(=O)[C@H](CCC(=O)N2CCCC2)NC1=O` is reported as -0.73.
The logD of `CCC[C@@H]1NC(=O)CSC[C@@H](C(=O)OCC)N(C)C(=O)[C@H](CC(C)C)NC(=O)[C@H](C)N(C)C(=O)[C@H](CC(C)C)NC(=O)[C@H](C)N(C)C(=O)[C@H]2CCCN2C(=O)[C@@H](CC(C)C)NC(=O)CN(CCC)C1=O` is reported as 0.982.
`CC(C)C[C@@H]1NC(=O)[C@H](CC(C)C)NC(=O)[C@H](CC(C)C)NC(=O)[C@H](CC(C)C)NC(=O)[C@@H](Cc2cscn2)NC(=O)[C@@H](CC(C)C)NC(=O)[C@H](C)NC1=O` has a logD of 0.0754.

Other studies, line by line
`C=CCc1ccc(O)c(-c2ccc(O)c(CC=C)c2)c1`: “potency fold increase” 1.15 (Anoctamin-1 (ANO1, Homo sapiens, UniProt Q5XXA6, del476-501); chloride current, inhibitor, whole-cell voltage clamp; wild type at 100 mV, added: 10 µM magnolol; reference: with over without magnolol).

A few entries again (set 2):
The Gini score of `CN([C@@H](Cc1ccc(OS(=O)(=O)c2cccc3cnccc23)cc1)C(=O)N1CCN(c2ccccc2)CC1)S(=O)(=O)c1cccc2cnccc12` is reported as 0.7.
For `CC#CC(=O)Nc1cc2c(Nc3ccc(F)c(Cl)c3)ncnc2cn1`, the Gini score was 0.79.
`O=C(Nc1nc2ccccc2n1CCN1CCOCC1)c1cccc([N+](=O)[O-])c1` has a Gini score of 0.7.
The Gini score of `COc1cc(Nc2c(C#N)cnc3cc(OCCCN4CCN(C)CC4)c(OC)cc23)c(Cl)cc1Cl` is reported as 0.61.
With `c1ccc(-c2cnc(Nc3ccc(OCCN4CCCC4)cc3)s2)cc1` the Gini score was 0.65.
`Nc1cccc(-c2cc3c(Oc4cccc(O)c4)ncnc3[nH]2)c1` gave a Gini score of 0.62.
